Measurements collected from several papers.
Every numbered part comes from another study and shows a few of its results, in no order.
Sequence of UniProt Q96I25 (280-401, looked up): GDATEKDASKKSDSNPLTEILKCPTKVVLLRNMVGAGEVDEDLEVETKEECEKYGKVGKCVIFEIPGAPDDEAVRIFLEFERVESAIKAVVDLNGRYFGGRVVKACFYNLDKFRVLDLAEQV

Block 1
Target: Histone acetyltransferase KAT6A, both winged helices, GST fusion (KAT6A, Homo sapiens, UniProt Q92794, residues 1-181)
Technique: protein binding microarray
Form: double-stranded DNA, one strand shown
Matrix: in vitro
Concentration: not given
Notes: 8-mer, flanks averaged, mean of 2 arrays, mostly near background
Baseline: not given
Reading: higher = stronger binding
Measurement: E-score
Target sequence (chain): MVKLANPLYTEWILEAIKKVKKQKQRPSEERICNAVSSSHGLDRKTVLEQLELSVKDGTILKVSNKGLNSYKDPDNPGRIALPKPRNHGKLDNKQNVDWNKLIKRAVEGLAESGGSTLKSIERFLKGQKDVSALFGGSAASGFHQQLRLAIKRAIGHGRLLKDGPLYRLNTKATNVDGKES
CATCGGTC: 0.0414
AGACGGGC: 0.273
GACCGCCA: 0.0923
AGTAGTTC: 0.0195

Single results of other studies
CBF1 full length, His-tagged: Centromere-binding protein 1, full length, His-tagged (CBF1, Saccharomyces cerevisiae, UniProt P17106, residues 1-351)
Sequence of UniProt P17106 (whole entry, looked up): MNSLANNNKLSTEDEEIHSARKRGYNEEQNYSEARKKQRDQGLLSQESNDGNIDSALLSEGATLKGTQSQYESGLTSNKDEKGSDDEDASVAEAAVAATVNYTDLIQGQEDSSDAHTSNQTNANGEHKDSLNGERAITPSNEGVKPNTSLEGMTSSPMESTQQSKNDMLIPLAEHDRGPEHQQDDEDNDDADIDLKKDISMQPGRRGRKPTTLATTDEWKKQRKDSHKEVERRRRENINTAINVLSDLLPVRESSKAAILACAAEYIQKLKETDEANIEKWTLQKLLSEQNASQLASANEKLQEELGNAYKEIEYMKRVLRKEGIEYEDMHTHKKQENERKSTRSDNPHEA
AATTTATCTTGGCAAAACGTGGGTATGGAACTTTTGGTCTTGATTCGCTTGACGCTGCTG  fluorescence intensity (CBF1 full length, His-tagged; competition protein-binding microarray; double-stranded DNA, one strand shown, in vitro; 2 µM, whole 60-bp probe, lowest competitor level, added: Pho4 competitor, 0.05 µM; higher = stronger binding): 115 a.u.
AAAAAAAA (biotin)  signal ratio (Splicing factor 45, UHM domain (RBM17, Homo sapiens, UniProt Q96I25, residues 280-401); protein domain microarray; RNA, in vitro; not given, poly(A) 8-mer RNA, whole probe, immobilized GST-fusion domains, most near background; baseline: GST loading signal, higher = stronger binding): 0.0392
CGGCCGGCCGAAAGCCATGCGGCCCAACAAGCGGCGGTCTTGATTCGCTTGACGCTGCTG  fluorescence intensity (CBF1 full length, His-tagged; competition protein-binding microarray; double-stranded DNA, one strand shown, in vitro; 2 µM, whole 60-bp probe, lowest competitor level, added: Pho4 competitor, 0.05 µM; higher = stronger binding): 40.6 a.u.
PhoQ, residues 284 288 289 292 302 303 SACGEM  fold induction (PhoP, residues 12 14 15 18 19 SYFRT (Escherichia coli, UniProt P23836); Sort-seq, refers to: YFP reporter; E. coli; PhoQ-PhoP variant library, added: 10 µM Mg2+; baseline: high Mg2+ state, higher = stronger signaling): 1.84

Excerpt of the above (single results of other studies):
PhoQ, residues 284 288 289 292 302 303 SACGEM  fold induction (PhoP, residues 12 14 15 18 19 SYFRT (Escherichia coli, UniProt P23836); Sort-seq, refers to: YFP reporter; E. coli; PhoQ-PhoP variant library, added: 10 µM Mg2+; baseline: high Mg2+ state, higher = stronger signaling): 1.84
